Published values gathered from unrelated publications.
± gives the spread as reported.
Organism: Salmonella typhimurium

Compound	test	system	setting	how to read	endpoint	result
COCCN(CCOC)N=O	mutagenicity, Ames plate incorporation	TA1537	2500 µg/plate, 3 d, without S9, methanol	–	revertant colonies per plate	11.3 ± 3
OC(CCN1CC=C(c2ccc(F)cc2)CC1)c1ccc(F)c2ccccc12 (stereo not drawn)	genotoxicity, SOS/umu test	TA1535/pSK1002	0.004 mg/mL, 4 h, with S9, lower range	–	induction factor	1
COc1cccc(-c2n[nH]c(SCc3ccccn3)n2)c1OC	Ames test, plate incorporation	TA1537	0.031 mg/plate, without S9	–	revertant colonies per plate	7
O=[N+]([O-])c1ccc(NC2CCNCC2)c(C(F)(F)F)c1	SOS/umu test	TA1535/pSK1002	0.063 mg/mL, 4 h, with S9, full range	–	survival	99.3%
Cc1cc(C(=O)NC(C)(C)COc2cccc3c2C(N)=NS(=O)(=O)N3)cc(C)n1	Ames test, confirmatory	TA1535	1000 µg/plate	reference: solvent control	revertant ratio	1.1
O=[N+]([O-])c1ccc(N2CCC(NCCC(O)c3ccc(F)c4ccccc34)CC2)c(C(F)(F)F)c1 (stereo not drawn)	genotoxicity, SOS/umu test	TA1535/pSK1002	0.031 mg/mL, 4 h, without S9, full range	–	induction factor	0.48
CC(C)N(C)N=O	mutagenicity, Ames plate incorporation	TA100	150 µg/plate, 3 d, without S9, methanol	–	revertant colonies per plate	174 ± 18
O=[N+]([O-])c1ccc(N2CCN(CCC(O)c3ccc(F)cc3)CC2)c(C(F)(F)F)c1 (stereo not drawn)	SOS/umu test	TA1535/pSK1002	0.004 mg/mL, 4 h, with S9, lower range	–	survival	77%
CN(N=O)c1ccc(F)cc1	mutagenicity, Ames plate incorporation	TA100	2500 µg/plate, 3 d, without S9, methanol	–	revertant colonies per plate	137 ± 18
CC(=O)N1CCC(C(=O)N2CCN3C(=O)c4cc(-c5ccccc5)ccc4NC(=O)C3C2)CC1 (stereo not drawn)	–	TA100	5000 µg/plate, with rat liver S9	–	revertants per plate	112
O=NN1CCN(C2CCCC2)CC1	mutagenicity, Ames plate incorporation	TA1535	50 µg/plate, 3 d, without S9, methanol	–	revertant colonies per plate	15 ± 4
N#C[C@@]1(n2ccc(N)nc2=O)O[C@H](CO)[C@@H](O)[C@H]1O	–	TA1537	25 µM, without S9	–	viability	102%

For quick reference, copied from above:
Compound	test	system	setting	how to read	endpoint	result
O=NN1CCN(C2CCCC2)CC1	mutagenicity, Ames plate incorporation	TA1535	50 µg/plate, 3 d, without S9, methanol	–	revertant colonies per plate	15 ± 4
N#C[C@@]1(n2ccc(N)nc2=O)O[C@H](CO)[C@@H](O)[C@H]1O	–	TA1537	25 µM, without S9	–	viability	102%
